Published values from different studies.
Parts stem from different laboratories: compare values within a part only. Positions count from the first letter of the parent shown.

Sample 1 — method: RNA Bind-n-Seq; molecule type: RNA; medium: in vitro; tested at: not given; setting: RNA with constant flanks, ends assumed; relative to: input RNA pool; direction: higher = stronger binding; quantity: bound/input enrichment
Target: RING finger protein unkempt homolog, zinc fingers 1-6, GST-SBP tag (UNK, Homo sapiens, UniProt Q9C0B0, residues 30-357)
Target sequence (chain): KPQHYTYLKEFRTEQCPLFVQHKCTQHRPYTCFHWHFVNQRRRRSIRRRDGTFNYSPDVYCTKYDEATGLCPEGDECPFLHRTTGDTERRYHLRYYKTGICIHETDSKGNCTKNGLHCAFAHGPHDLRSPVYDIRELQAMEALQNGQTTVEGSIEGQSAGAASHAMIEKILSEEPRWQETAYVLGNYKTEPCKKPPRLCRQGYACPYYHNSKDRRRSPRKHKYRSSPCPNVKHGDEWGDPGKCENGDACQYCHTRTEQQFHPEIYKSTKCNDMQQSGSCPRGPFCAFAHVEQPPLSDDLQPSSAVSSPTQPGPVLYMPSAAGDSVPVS
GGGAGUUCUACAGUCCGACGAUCGGAUCCAGUCUUGGUGGAUGGCUCAUGCUGCAUGCUGCAAUUGCACGGCCGGAAAAAGUCACCGCUCUUAUUGGUAUAGCUACUGCUGCAGAUGGAUUGGUGACACAAUAUCAUGCACUUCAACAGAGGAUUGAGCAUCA: 0.207 ratio
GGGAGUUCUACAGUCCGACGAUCUGUUUGUUUGUUUGUAGUCUUGAUGCUCUCCUGUGGUUUACUUCCCUUCUGAUAGGACACUACCGCCAGUCUCAGCACUCGUAAGUGCGGAGGGCCACAUCCAGGAAAGAAGGCAGAGCCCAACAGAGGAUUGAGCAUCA: 0.312 ratio
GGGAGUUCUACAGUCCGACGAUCUUUGUAACUUAUCUGUAAAAGGUUUCUCCCUACUGUCAAAAAAAUAUGCAUGUAUAGUAAUCCGGACUUCAUUCCUCCAUGUUUUCUUCCCUUAUCUUACUGUCAUUGUCCUAAAACCUUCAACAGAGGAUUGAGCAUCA: 0.671 ratio
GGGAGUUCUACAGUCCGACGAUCGUCUAUCUUAAUCUGGUGCUGGACUAUGUUCCGGAAACAGUAUACAGAGUUGCCAGACACUACCGUCGAGCCAAACAGACGCUCCCUGUGAUUUAUGUCAAGUUGUAUAUGUAUCAGCUGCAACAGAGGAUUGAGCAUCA: 0.0485 ratio
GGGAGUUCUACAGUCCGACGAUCUUGCUGUCUAUUUGUUCCCUUUUGACAGACUGCAACCCUGCGGAUCCUCUGGUUGGAAGCACCGCCACUCAGUAUUUGACCAACAGAGCAGAACACGACAGGAUAGCCAGACAGUGGACCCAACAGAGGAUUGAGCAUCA: 0.142 ratio
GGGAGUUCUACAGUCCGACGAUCGGAGUCGGGAGGCCUGAGUGUUCCUUCCAGCAUGUCGGAGGGGGAGUCCCAGACAGUACUCCGCAGUGGCUCAGACCCAAAGGUAGAAUCCUCAUCUUCAGCUCCUGGCCUGACAUCAGUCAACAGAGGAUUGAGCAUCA: 0.095 ratio
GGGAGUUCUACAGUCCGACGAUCAGGCUCAUCCAGCCCUAUAUCCACAACUACUCCUGGCUGCUCUUUGCUGCCCUGGCUCUCUACCGUGCCCACCUGACCAGUACAGAGCAGGUGGAUGGGGAGCAGCUGGACCCCCAGGCCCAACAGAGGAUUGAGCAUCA: 0.0727 ratio
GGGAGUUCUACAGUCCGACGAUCUUCUACUUUGGCUCCCUAAAGCUGAAUUCAAUUCACAUCUCUCAGAGGUUCACCGCCGACAGCUUUGGAAACUACGCUUCCUGUGGACAAAUUGACUUCUCCUGAGGUGGAUCUUGGAAACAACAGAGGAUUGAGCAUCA: 0.079 ratio
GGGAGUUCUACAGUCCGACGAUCUUUUCCUCUUCUUCCUCAUCCUCCUCUGGACCUAGGACUUUCUACCCUCGCCAGGGCGCCACCCGCAAAUAUCUGAUUGGAUGGAAAAAGCCAGAAGGAACCAUUAACUCCGUGGGAUUUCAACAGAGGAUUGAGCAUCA: 0.254 ratio
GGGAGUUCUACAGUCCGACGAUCGCCAGGCCGUAUACUGGGUUCACAUAUCAGGCUGCAGGAAAGGCAGUAUGAUAUAAGGUAAGGGCACCGGAAAUGAAGCUGAAAUGGACACACACACACACACACACACUGAUAAACUUGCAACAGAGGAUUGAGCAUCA: 0.489 ratio
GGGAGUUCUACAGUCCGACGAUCAGAUACUUGCAAAAUAGAUCUCGAAUUCAGGUGUGGCUGUAUGAACAAGUGAAUAUGCGGACCGAAGGUUGUAUUAUUGGCUUUGAUGAGUACAUGAACCUCGUAUUAGAUGAUGCAGAACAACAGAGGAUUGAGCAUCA: 0.587 ratio

Sample 2 — method: RNA Bind-n-Seq; molecule type: RNA; medium: in vitro; tested at: 365 nM; relative to: no-protein control; direction: higher = stronger binding; quantity: RBNS enrichment (R)
Target: RNA binding protein fox-1 homolog 2, RRM domain, GST-SBP tag (RBFOX2, Homo sapiens, UniProt O43251-10, residues 100-194)
Setting: natural RNA segment, single round, ends assumed
Residues (chain): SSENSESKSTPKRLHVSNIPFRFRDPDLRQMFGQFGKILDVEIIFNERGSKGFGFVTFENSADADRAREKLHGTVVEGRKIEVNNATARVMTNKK
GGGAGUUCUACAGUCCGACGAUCGUGGAGCAACAGCUUUAGAGUGACUCAACUCCUAUCACCAGGAGAAACAAUUCUGAAAACUGGUCCCUGGUGGUCAGCAGGAAAUGAUCUUUAUUUUUAUGCUAACAACCUGGAAUUCUCGGGUGCCAA: 0.276
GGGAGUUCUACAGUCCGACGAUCCACAUACAGUUCUUUUUAGGCAUGAGUGUGUAUUACUGAUCCAACAUCUUCAUUCAUUCACUGAGUAUUUAUUGAACGCCUCCUAGGUGUCGGACAUGUACUGGGUGCUGUGGAAUUCUCGGGUGCCAA: 0.254
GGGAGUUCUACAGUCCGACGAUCGAAUACUAUCAACAUGGACUAUCCUGGGAAAGAGCUAGGAAGUAGAUGCUGAGGUCCCCAUCCAAACAGCAAGCUAGGAAAAAGCCUGCCUUGAAAAUAUUUCUAGACAUUGGAAUUCUCGGGUGCCAA: 0.572
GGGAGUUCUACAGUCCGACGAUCAGGUGUGAUCUACCACUGCCGGGCCCUCAUGUUGCGUUGUGUUCUUAAGUUGAGGAAGAACUGUCUCCUCUUCCACCUUUCUACAGAAUGCCUCUUCUUUACCUCCCGCCUGGAAUUCUCGGGUGCCAA: 0.37
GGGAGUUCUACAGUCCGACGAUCAAGGAGGUGCACCCAGGAGGGUCCUCAGAAUCAUGGACUUCUACCCCAUUGCUGGUAGACAAUUUUCAUCUCUGCUGGUGGUGGCCUCUUGUUGACUCUGAAACUUGUCAUGGAAUUCUCGGGUGCCAA: 0.473
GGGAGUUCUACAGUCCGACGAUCUGACAUUUAAUAAUGACUUAGCAAGCAUUGGAUUUUUUUUUUUUGUUGUUCUUGUUAGCUAAAGCACUUUUAGUUUUAUCCUUCCCUAGUAGGUUAUUGUAUCAGACUAGUGGAAUUCUCGGGUGCCAA: 0.922
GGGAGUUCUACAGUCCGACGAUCGCAACGAGUUGAAUUCUAAUCCUCACAGGAUGGAUGCCAGUGUCGGCACUUUCUUAAUUAUGAGUAUUGAAAGGUGCUGUUUUCAGUCUCCACAUGUCUGCUGACAAGUUUGGAAUUCUCGGGUGCCAA: 0.296
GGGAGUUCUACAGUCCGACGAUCAAGUUUAUAAAACAAUUUGCCAUAGGCAAAGCCAUUUAAAAAGUUCAUUCUGAAAUUAUUUCAUUUACCUACAGUGAAAUAAUUGUGAACUAAGUAGUCUUUCUGAAAACUGGAAUUCUCGGGUGCCAA: 0.35
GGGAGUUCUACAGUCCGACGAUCCGUAAAGGGUGGAGGGCUUGAGGCUUAAAUAUAUGAGUAUGUUUAUACUGCUCUACUGCACUUAGACUCUCCACUCACAGAUAAGUCUUGUCUGUUAGUAGUGCUGUAGAUGGAAUUCUCGGGUGCCAA: 0.39
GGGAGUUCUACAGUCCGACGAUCCCAUCUUGGGUUCUGGUCAGUGCUGCAGGCUCCUGGGCUCCCCUCUGCCCAGUGAGCAACUUAUACCCUGCACUGGAUAGUGGCAAGUACCCAGCCUGGGACUUCCCUGGUGGAAUUCUCGGGUGCCAA: 0.186
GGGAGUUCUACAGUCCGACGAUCUGCUUUCUGUAAUUGCACUGUGGAUAAAUGUUCCGAGAGUCUCCAUUGUUGUACAGGAUCUUCAGUUAUUCGAGGGGAAUGAGGCAGGUCAAGCCGAUGCUAGCCACUAGUGGAAUUCUCGGGUGCCAA: 0.927
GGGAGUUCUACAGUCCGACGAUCAAUAGGUAAAUUGACAAGAAGUAUUUAUUGUUUUUCCAUAUUGCUUUAUUGCCUUCCUUGGGGAUAAACCAAUUCCUAUCCUUUUUUAUAUGUGUAAGUAAAGCCUGAAGUGGAAUUCUCGGGUGCCAA: 0.53

Sample 3 — method: protein binding microarray; molecule type: double-stranded DNA, one strand shown; medium: in vitro; tested at: not given; relative to: not given; direction: higher = stronger binding; quantity: E-score
Target: Histone acetyltransferase KAT6A, winged helix 2, GST fusion (KAT6A, Homo sapiens, UniProt Q92794, residues 85-181)
Setting: 8-mer, flanks averaged, mean of 2 arrays, mostly near background
Construct (chain): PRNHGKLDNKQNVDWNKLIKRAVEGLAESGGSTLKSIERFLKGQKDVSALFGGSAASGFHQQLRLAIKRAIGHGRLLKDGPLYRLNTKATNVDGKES
AACGCATC: -0.0537
AGGGCCAA: -0.025
ACCATCAT: -0.195
ACTAAGCT: 0.16
CAACCTAC: 0.0166
ATCCTTAA: -0.12
GAAATCCA: -0.00495
AGTGGCAT: 0.107
ACCGAACC: -0.00184
AACAGTTC: 0.0372
GATGCGTA: -0.087
ATATCACC: -0.0194
GTATTGGA: -0.115
CAAGCCCA: -0.172
CCATAGTA: -0.129
AATCTAAT: -0.0628
AGCTCTTG: -0.0392
AAGTTTTA: -0.0476
AACCTGTG: -0.158
CCCAGTGC: 0.129
CTAGCCCC: -0.07
GAAGGGGA: 0.0458
CGCAAGCA: 0.0714
CGCATACC: -0.0372
AGTTCTAA: 0.143

Sample 4 — target: CCNB2, cyclin fold, Cln2 fusion (human); method: yeast growth competition, sequencing; medium: yeast; setting: weak parent motif; relative to: not given; direction: higher = stronger binding; quantity: normalised enrichment score
Parent: CDC25A docking peptide (human); PPHRRRLLFACSP
P1H: 0.784
P1W: 0.603
R4F: 1.01
R5S: 0.474
C11T: 0.243
R6F: 0.000384
A10P: -0.145
R5C: 0.129
L8V: 0.47
R6V: 0.489
S12R: 0.751
L7D: 0.407
F9P: 0.202
L7Q: 0.318
P1D: 0.193
S12T: 0.233
R5G: 0.282
R6K: 0.662
R4T: 0.433
P2D: 0.387
P2A: 0.417
P1L: 0.502
F9C: 0.457
A10G: 0.47
A10L: 0.00497
